Measurements from different studies.
Lines come from different studies, so protocols differ. “And” joins repeats or separate records; there may be more than shown.
Target: Ephrin type-A receptor 6 (EPHA6, Homo sapiens, UniProt Q9UF33)

Compound | test | test system | setting | how to read | endpoint | value
C[C@H]1CN(C(=O)c2cn(-c3ccnc(N)n3)c3cc(C#CC4(O)CCCCC4)ccc23)CCN1 | cell-free assay, TR-FRET | – | 1 µM | – | inhibition | -1%
C=CC(=O)N1CCc2ccc(-n3c(=O)ccc4cnc5ccc(-c6cnn(C)c6)cc5c43)cc21 | KINOMEscan | – | 1 µM | baseline: DMSO control | remaining binding | 100%
COc1c(Cl)cccc1Nc1c(-c2ccncc2C#C[C@@]2(C)CCCN2C(=O)/C=C/CN(C)C)[nH]c2c1C(=O)NCC2 | cell-free assay, competition with immobilised ligand | – | 3 µM | – | remaining binding | 48%
CCn1cc(C(=O)O)c(=O)c2c(N)c(F)c(NC3CCCCC3)cc21 | kinase activity | – | 0.1 µM, with: ATP at Km | – | inhibition | 7.7%
NC(=O)C[C@H]1CCc2sc3ncnc(O[C@H]4CC[C@H](N5CCOCC5)CC4)c3c21 | enzyme activity, inhibitor | – | 10 µM | – | inhibition | 6%
N[C@H]1CC[C@H](Nc2nccc(-c3cccnc3Oc3ccc(NC(=O)NC4CC4)c4ccccc34)n2)CC1 | kinobead competition pulldown | HEK293/HCT116 lysate mixture | 10 µM, 1 h, 4 °C | lower = stronger competition | log2 LFQ intensity | 20.3 and 17.8 and 20.2 and 19.8
CNC(=O)C1CCN(c2cc(C)c(F)cc2NC(=O)c2ccc(-c3cc(O)ccc3C)c(C)c2)CC1 | binding, competition with immobilised ligand | – | 1 µM | – | remaining binding | 16%
C=CC(=O)N1Cc2nc(-c3cc(-c4cc(Cl)cnc4Cl)c(F)cc3F)n(-c3ccncn3)c2C1 | cell-free assay | – | 1 µM | – | inhibition | 9%
CC(C)=CC1OC(C)(C)C2C=C3C(=O)C(Cl)=CC(O)C3C3C(O)C4OC4C(=O)C132 (stereo not shown) | cell-free assay, competition with immobilised ligand | – | 10 µM | – | remaining binding | 95%
NC(=O)[C@@H](O)C[C@H]1CCc2sc3ncnc(O[C@H]4CC[C@H](N5CCOCC5)CC4)c3c21 | enzyme activity, inhibitor | – | 10 µM | – | inhibition | 9%
CN1CCN(Cc2ccc(-c3ccc(CO[C@H]4CCC[C@@H]4NC(=O)c4cc(-c5cnn(C)c5)cnc4N)cc3)cc2)CC1 | enzyme activity, inhibitor | – | 0.1 µM | – | inhibition | -6%
Nc1ncc2c(n1)-c1c([nH]c3ccc(C4=CCOCC4)cc13)CCC2 | binding, competition with immobilised ligand | – | 1 µM | – | remaining binding | 97%
Cc1cnc2nc1Nc1cccc(c1)COC/C=C/COCc1cc(ccc1OCCN1CCOCC1)N2 | binding | – | 0.1 µM | – | remaining binding | 95%
CNC1C[S+]2CC[S+]3CC[S+](C1)[Ru-4]321([N]=C=S)[n]2c3ccc(OC)cc3c3c4c(c5cc(F)c[n+]1c5c32)C(=O)NC4=O (stereo not shown) | KinomeScan | – | 0.1 µM | baseline: untreated | remaining binding | 94%
Nc1ncc(-c2cc(-c3cnn(CC(F)(F)F)c3)ncc2F)nc1C(=O)NC1CNCC(F)C1 (stereo not shown) | enzyme activity | – | 1 µM | baseline: DMSO control | remaining activity | 81.3%
C=CC(=O)N1CCCC(n2c(=O)c3ncccc3n(Cc3ccc(Oc4ccccc4)cc3)c2=O)C1 (stereo not shown) | cell-free assay, competition with immobilised ligand | – | 1 µM | – | remaining binding | 100%
COc1cc(Nc2nccc(-c3cnn4nc(OC)ccc34)n2)cc(C(F)(F)F)c1 | binding, competition with immobilised ligand | – | 1 µM | – | remaining binding | 98%
CCN1CCN(Cc2ccc(C(=O)Nc3ccc(C)c(NCc4cnc5[nH]ccc5c4OC)c3)cc2C(F)(F)F)CC1 | binding, competition with immobilised ligand | – | 1 µM | – | remaining binding | 36%
Cc1ccc(-c2c(/C=C(\C#N)C(=O)NC(C)C)n(CCCO)c3ncnc(N)c23)cc1 | cell-free assay, competition with immobilised ligand | – | 1 µM | – | remaining binding | 49%
